Measured values of several laboratories.
Parts stem from different laboratories: compare values within a part only. Changes are numbered by the printed parent chain.

Sample 1
Target: RNA binding protein fox-1 homolog 2, RRM domain, GST-SBP tag (RBFOX2, Homo sapiens, UniProt O43251-10, residues 100-194)
Technique: RNA Bind-n-Seq
Molecule type: RNA
Sample: in vitro
Tested at: 365 nM
Notes: natural RNA segment, single round, ends assumed
Baseline: no-protein control
Direction: higher = stronger binding
Residues (chain): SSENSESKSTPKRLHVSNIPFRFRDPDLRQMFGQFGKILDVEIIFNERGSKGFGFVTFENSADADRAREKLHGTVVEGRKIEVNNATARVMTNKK
Oligonucleotide	RBNS enrichment (R)
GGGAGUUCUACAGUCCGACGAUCACAUACCAGGUCAGGGAGGGCCGAUCCUUCCUCCACCUUUUUCCUGGCAUAUGUUUAAGGUAACAAAAAGAUCAGGAGUUGCCUCUGGCCUCUAAAGUGCCAAGGGACCAUGGAAUUCUCGGGUGCCAA	0.31
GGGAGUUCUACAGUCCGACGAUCUAAUGUAUUUUCUUUUUAUUUUGCACUCUGUAAUUGCACUUUUUAAGUUUGAAGAGCCAUUUUGGUAAACGGUUUUUAUUAAAGAUGCUAUGGAACAUAAAGUUGUAUUGUGGAAUUCUCGGGUGCCAA	0.743
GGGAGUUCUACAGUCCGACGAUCAAAUUAUUUCCUUUCAAGGGCCCUUUAAUAUCUAUCAAGCUCCCUCCCCUAACAAAAUGGGCUGUCCCUGCCCAACAAGUCUGAAAUAGACCUUAAAACUGUGCUGCCUUUGGAAUUCUCGGGUGCCAA	0.64
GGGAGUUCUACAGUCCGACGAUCAUCAAAACAGUGAGCACCGUAUGAAUGAGAGCUGAAGAAGGACUUUUAUUUUGUUAUAACAUUGUUACCUUGUCAGUAUUAUUUCAAAGGUUCUUUGAAGAAUAGGGGGGUGGAAUUCUCGGGUGCCAA	0.451
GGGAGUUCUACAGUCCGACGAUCUGGCCAGGUCUCACCACCUCAGUGUGCAGUUCAACUCCAUGCCAUCCCAUCAAGAUGGGUUAGUAGCAGUGUCUGUUUUUGAAUGCCAAGUGUGAUUUCCAACAAUUCUGUGGAAUUCUCGGGUGCCAA	0.373
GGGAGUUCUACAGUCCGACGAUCGGGAGAUAAUUAUCAGUCAUGAGGAAAGACACAGAUUUCGGUCAUAAAGAAUGUAAGGGCUAUAAGUAGAAACUUUCUAUAACCUAAAUGAUGUUAUAGAAUUAUUUUUGUGGAAUUCUCGGGUGCCAA	3.6
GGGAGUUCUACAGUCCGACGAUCUCCUGUAAUGCUGCUGCCCCUCCUUCCUGGGCAGCUCUACUGGGGAGAUGAGAAGCUCUUGAUCCAAUCCCUGUGCAGCAUCAAGAAGCCCAGGAAGCUGGCCCAGGCCUUGGAAUUCUCGGGUGCCAA	0.472
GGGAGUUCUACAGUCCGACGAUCAAGGCCAAAUCAAAACCCCGGAAGCGGUUAGAAGAAAGCCAAGGAGGCCCCAAGCCAGGGGCAGUGAGGUCAUCUAGCAGUGACAGGAUCCCAUCAGGCUCCUUGGAAAGUGGAAUUCUCGGGUGCCAA	0.199

Sample 2
Target: Prothrombin, mature alpha-thrombin (F2, Homo sapiens, UniProt P00734)
Technique: aptamer microarray, sandwich
Molecule type: DNA with 2'F-ANA
Sample: in vitro
Tested at: 200 nM
Notes: whole 15-mer aptamer, many near background
With: Cy3 exosite-II aptamer, 400 nM
Direction: higher = stronger binding
Oligonucleotide: GGTTGGTGTGGTTGG
Modification	mean fluorescence intensity
2'F-ANA at 3 4 5 6 8 9 10 12 13 15	64.3 a.u.
2'F-ANA at 1 2 4 5 7 9 11 12 14	50.7 a.u.
2'F-ANA at 2 3 5 7 8 9 11 13 14	51.8 a.u.
2'F-ANA at 2 4 7 8 10 12 13	106 a.u.
2'F-ANA at 3 6 11 12 14	609 a.u.
2'F-ANA at 1 3 4 5 8 9 11 12 13 15	69.9 a.u.
2'F-ANA at 1 6 7 9 11 13 15	107 a.u.
2'F-ANA at 4 5 6 8 11 12 13 14	43.7 a.u.
2'F-ANA at 2 3 6 11 13	526 a.u.
2'F-ANA at 1 3 5 9 14 15	46 a.u.
2'F-ANA at 1 2 6 7 9 10 11 13	48.8 a.u.
2'F-ANA at 6 8 11 14	176 a.u.

Sample 3
Target: CCND1, cyclin fold, Cln2 fusion (human)
Technique: yeast growth competition, sequencing
Sample: yeast
Notes: strong parent motif
Baseline: not given
Direction: higher = stronger binding
Starting sequence: SCAPER docking peptide (human); SNARRSLNFGGST
Change	normalised enrichment score
T13N	1.26
A3H	0.0882
R5P	0.786
N8P	0.256
F9W	1.01
F9T	0.292
T13S	1.14
G11R	-0.217
S1I	-0.129
L7T	0.338

Mixed results
Molecule	target	test	test system	conditions	how to read	measurement	result
PhoQ, residues 284 288 289 292 302 303 SACGEM	PhoP, residues 12 14 15 18 19 SMASL (Escherichia coli, UniProt P23836)	Sort-seq, refers to: YFP reporter	E. coli	PhoQ-PhoP variant library, with: 10 µM Mg2+	baseline: high Mg2+ state, higher = stronger signaling	fold induction	3.46
